Results of several laboratories.
Compare with care: the assays were run in different laboratories. Numbers after ± are the reported error.
Organism: Staphylococcus aureus

SMILES	effect on	method	strain	tested at	time	inhibition zone
COc1c2c(cc3oc(=O)cc(-c4ccc(Cl)cc4)c13)C(=O)c1cc(C)cc(O)c1C2=O	microbial growth	disc diffusion	MTCC96	100 µg/disc		13 mm
Cc1cccc(NCC(=O)Nc2nc3ccccc3s2)c1	microbial growth	disc diffusion		100 µg/mL	24 h	0 mm
Cc1cc(O)c2c(c1)C(=O)c1cc3oc(=O)cc(-c4ccc(O)cc4)c3c(O)c1C2=O	microbial growth	disc diffusion	MTCC96	100 µg/disc		8 mm
C=C(CO)C(=O)O[C@H]1CC(=C)[C@@H]2C[C@H](O)[C@](O)(CCl)[C@@H]2[C@H]2OC(=O)C(=C)C12 (stereo partly drawn)				concentration not given		12 ± 0.33 mm
O=C1c2ccccc2C(=O)c2c1ccc1c2C(C(=O)Nc2ccccc2)C(=O)C1c1ccccc1 (stereo not drawn)	microbial growth	disc diffusion	MTCC96	100 µg/mL	24 h	11 mm
Cc1cc([N+](=O)[O-])ccc1NC(=O)CSc1nc2ccccc2c(=O)n1-c1ccc(S(N)(=O)=O)cc1	microbial growth	well diffusion	MRSA	500 µg/mL	24 h	29 mm
COc1ccc(NC(=O)C2C(=O)C(c3ccccc3)c3ccc4c(c32)C(=O)c2ccccc2C4=O)cc1 (stereo not drawn)	microbial growth	disc diffusion	MTCC96	100 µg/mL	24 h	8 mm
COc1cc(OC)c2c(c1)C(=O)c1cc3oc(=O)cc(-c4ccc(Cl)cc4)c3c(O)c1C2=O	microbial growth	disc diffusion	MTCC96	100 µg/disc		10 mm
Cc1ccc(NC(=O)C2C(=O)C(c3ccccc3)c3ccc4c(c32)C(=O)c2ccccc2C4=O)cc1 (stereo not drawn)	microbial growth	disc diffusion	MTCC96	100 µg/mL	24 h	10 mm
CCc1ccc(NC(=O)CSc2nc3ccccc3c(=O)n2-c2ccc(S(N)(=O)=O)cc2)cc1	microbial growth	well diffusion	ATCC29213	500 µg/mL	24 h	26 mm
O=C1c2ccccc2C(=O)c2c1ccc1c2C(C(=O)NCc2ccccc2)C(=O)C1c1ccccc1 (stereo not drawn)	microbial growth	disc diffusion	MTCC96	100 µg/mL	24 h	11 mm
CCOc1ccc(NC(=O)CSc2nc3ccccc3c(=O)n2-c2ccc(S(N)(=O)=O)cc2)cc1	microbial growth	well diffusion	ATCC29213	500 µg/mL	24 h	33 mm

Some of these lines once more:
SMILES	effect on	method	strain	tested at	time	inhibition zone
COc1cc(OC)c2c(c1)C(=O)c1cc3oc(=O)cc(-c4ccc(Cl)cc4)c3c(O)c1C2=O	microbial growth	disc diffusion	MTCC96	100 µg/disc		10 mm
